Assay results from different studies.
Parts stem from different laboratories: compare values within a part only.

Series 1
Target: Replicase polyprotein 1ab, main protease (rep, Severe acute respiratory syndrome coronavirus 2, UniProt P0DTD1)
Effect on: enzyme activity
Action: inhibitor
Notes: with DTT
Structure (SMILES) | IC50 [nM]
O=c1c(O)cccc2cc(O)c(O)c(O)c12 | > 20000
O=C(CCl)c1ccccc1 | 240
Cc1ccc(-n2sc(=O)n(Cc3ccc(F)cc3)c2=O)cc1 | 150

Series 2
Target: Max dimerization protein 1, bHLH-zipper, MAX partner unstated (MXD1, Homo sapiens, UniProt Q05195, residues 56-136)
Technique: protein-binding microarray
Form: double-stranded DNA, one strand shown
Sample: in vitro
Tested at: not given
Notes: k-mer, scored over probes, only values ≥0.25
Reading: higher = stronger binding
Residues (chain): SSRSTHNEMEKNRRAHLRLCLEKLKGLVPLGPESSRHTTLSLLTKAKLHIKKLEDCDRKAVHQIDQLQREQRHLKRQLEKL
Sequence | E-score
CGTGACTA | 0.289
ACATGTGC | 0.467
CACCCCGC | 0.283
GCATGGAC | 0.363
ACGTGTGA | 0.392

Series 3
Cell line: HEK-293T/ACE2
Tested at: 10 µM
Time: 16 h
Relative to: vehicle
SMILES | viability
COCCCOc1cc(C[C@@H](C[C@H](N)[C@@H](O)C[C@H](C(=O)NCC(C)(C)C(N)=O)C(C)C)C(C)C)ccc1OC | 102%
COc1cc(NC(C)CCCN)c2ncccc2c1 (centres unmarked) | 101%
CCCCC1C(=O)N(c2ccccc2)N(c2ccccc2)C1=O | 101%

Series 4
Target: Replicase polyprotein 1ab, nsp13 helicase (rep, Severe acute respiratory syndrome coronavirus 2, UniProt P0DTD1)
Action: inhibitor
Tested at: 20 µM
Structure (SMILES) | inhibition [%]
Fc1ccc(CNc2ncnc3ccc(F)cc23)cc1 | -1.45
C[Se]CC[C@H](N)C(=O)O | 3.98
N=C(CC(O)COc1ccccc1-c1ccccc1)N1CCCCC1 (centres unmarked) | 4.02
CC1CCN(C(c2ccc(F)cc2)c2ccc(C(C)C(=O)O)cc2-c2ccc(C(F)(F)F)cc2)CC1 (centres unmarked) | 0.17
CC#C[C@@H](CC(=O)O)c1ccc(OCc2cccc(-c3ccc(C(F)(F)F)cc3)c2)cc1 | 6.76
CSc1ccccc1Nc1nc(N2CCNCC2)nc2c(NCC3CC3)ncnc12 | 15.5
C[C@H](/C=C/[C@H](C)C(C)(C)O)[C@H]1CC[C@H]2/C(=C/C=C3C[C@@H](O)C[C@H](O)C3)CCC[C@]12C | 6.57
CN(C)C[C@H](O)Cn1c2ccc(Br)cc2c2cc(Br)ccc21 (racemic) | 13.8
CC(C)c1ccc(-c2cc(=O)c3ccccc3o2)cc1 | 3.3
Cc1cccc(Oc2cnc(=O)[nH]c2)c1 | 6.52
C[C@@H](O)[C@H](N)C(=O)N1CCC[C@H]1C(=O)N1CCC[C@H]1C(=O)N[C@H](C(N)=O)[C@@H](C)O | 5.87
CSc1ccc2c(c1)C(N1CCN(C)CC1)Cc1ccccc1S2 (centres unmarked) | 7.91
Cc1cc(Nc2ncnc3ccc(NC4=NC(C)(C)CO4)cc23)ccc1Oc1ccn2ncnc2c1 | 5.82
CC(=O)Nc1ccc(S(=O)(=O)Nc2ccc([N+](=O)[O-])cc2)cc1 | 2.37
CN1CCC(=C2c3ccccc3CCc3sccc32)CC1 | 6.87
C1CCC(C(CC2CCCCN2)C2CCCCC2)CC1 (centres unmarked) | 4.25
Clc1ccc(C(Cn2ccnc2)OCc2csc3c(Cl)cccc23)c(Cl)c1 (centres unmarked) | -1.7
CS(=O)(=O)Nc1c(O)ccc2c1CCCC2C1=NCCN1 (centres unmarked) | 5.2
CC(=O)NCCCCCC(=O)O | -0.42
CC(C)NC(=O)N1CC[C@H](NC2=Nc3cc(F)ccc3N(CC(F)F)c3ccc(Cl)cc32)C1 | 4.02
C[C@H](Oc1cc(-c2cnn(C3CCNCC3)c2)cnc1N)c1c(Cl)ccc(F)c1Cl | 28.6
CCOc1cc(OCC)c(C(=O)CCC(=O)O)cc1OCC | -5.36
CCS(=O)(=O)N1CCN(c2ccc(Nc3ncc(C(N)=O)c(NC4CC4)n3)cc2)CC1 | 8.47
Cc1cc(-c2nc3cc(F)ccc3s2)ccc1NC(=O)[C@@H](N)CCCCN | 6.75
Ic1cc(-c2ccccc2)ncn1 | 6.34

Series 5
Target: Fragile X messenger ribonucleoprotein 1, C-terminal low-complexity region (Fmr1, Mus musculus, UniProt P35922)
Technique: RNA Bind-n-Seq
Form: RNA
Sample: in vitro
Tested at: 200 nM
Notes: whole 134-nt RNA, ends assumed
Added: 150 mM LiCl
Relative to: input library
Reading: higher = stronger binding
Library: 7-deaza-guanosine replaces G
All sequences stand within: GGGAGUUCUACAGUCCGACGAUC … UGGAAUUCUCGGGUGUCAAGG
Sequence | log2 enrichment
CCUCAAGUCCUGUGCUACACAUCGUAUGUACCGAAUCGGGAGGAGGGGAGGGAAAGUAUUAUGUUACGCCGUUCGGAUCUGCACUUCCAG | -0.24
UAACUUUAGAGGAGGAUCUGAUGGAUAUGGCAGUGGACGCGGAUUUGGGGAUGGCUAUAAUGGGUAUGGAGGAGGACCUGGAGGUGGCAA | 0.368
CAAGUCCUGUGCUACACAUCGUAUGUACCGAAUCGGGAGGGUGGGUUUUUUUGGGAAAGUAUUAUGUUACGCCGUUCGGAUCUGCACUUC | -0.73
AAGUCCUGUGCUACACAUCGUAUGUACCGAAUCGGGUUUUUUUGGGAGGGUUUGGGAAAGUAUUAUGUUACGCCGUUCGGAUCUGCACUU | -0.888
CAAGUCCUGUGCUACACAUCGUAUGUACCGAAUCGGCCCCGGGCCCCGGCCCCGGAAAGUAUUAUGUUACGCCGUUCGGAUCUGCACUUC | -0.723
CAAGUCCUGUGCUACACAUCGUAUGUACCGAAUCGGGUUUUUGGGUUUGGGAGGGAAAGUAUUAUGUUACGCCGUUCGGAUCUGCACUUC | -0.673

Series 6
Target: RNA binding protein fox-1 homolog 2, RRM domain, GST-SBP tag (RBFOX2, Homo sapiens, UniProt O43251-10, residues 100-194)
Technique: RNA Bind-n-Seq
Form: RNA
Sample: in vitro
Tested at: 365 nM
Notes: natural RNA segment, single round, ends assumed
Relative to: no-protein control
Reading: higher = stronger binding
All sequences stand within: GGGAGUUCUACAGUCCGACGAUC … UGGAAUUCUCGGGUGCCAA
Residues (chain): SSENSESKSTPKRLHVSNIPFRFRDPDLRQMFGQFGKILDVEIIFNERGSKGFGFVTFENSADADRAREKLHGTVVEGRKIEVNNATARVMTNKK
Sequence | RBNS enrichment (R)
GGGAGAGGCGGGGAAUAAAGUGCCUAUUCUGCCAGUGUCUGGGACUUCUUUAUGGACAGAAGGGGACCCUGAUGAGACCACGCCCGGCGUUUUUACUGUGAAUGUAAAUG | 0.775
UGUUGACCAUGCAGGGAAGUGGCCAAUGUGCCCACUUCCCAUCUCUUCCUUGCGCAUUGUCAGCAUUUCUGAGUGAUUCACAGUGAUGUUUUAUGAUGGUUAGACUUCUG | 0.311
CACACACGGAGGCAUCCUACCCUUUUCUGGGGAAAGACACUGCCUGGGCUGACCCCGGUGGCGGCCCCAGCACCUCAGCCUGCACAGUGUCCCCCAGGUUCCGAAGAAGA | 0.313
GCUCUAUAUUUGCAUGGUGCUGCGUGGCGGAGGACCCCUCUGAAUCCUGAAACCCCUCUUGCCUCUCUUCCACGGAAGAGGGCCUGGGCCCCGUGGAGCCUCAGUGCCCG | 7.93
AUUAGCUGUUGACCAUUUGAUGCUGUUGUCUGUCUGGCAGGGACUGAAUGACCUGAUGUCAGAUUUAGAUUCUUCCUGGGGAUUACACAGCUAUGAAUGUAUUUGCUUCU | 0.741
AUAAACCUUCAUAUUCUGUCUGUCUCUGUUUGGUUUUGUUUUUAAUAUAGUGUGCCAAUUUUGUGACUGUAAUCAUGUGAAAGCCCCAUUGAACCGAAGAAUUAUGUCUG | 6.71
CCCUUUGUCUUGUAGUUGCAUCACGUAGAGCAGCAGGGCUUCUAUAGAUAGGCCCAGUGUCUUGGCAUUCUUGUAGAAUCUUCAGGUGGGAAUGUGUGAUGCCUUUUCAG | 2.73
GCUCUCCUCCUUCUGUCCCCUCCCCUACUGUCUGCUGCCCCUUCCUGGGGAGUUGGUGCUUUCUUUUUUGUUGUUGUUUUUUCCCAGGGGUAGGGAGGAGAGAGGAGGGG | 2.41

Some of these lines once more (series 4):
Structure (SMILES) | inhibition [%]
CN(C)C[C@H](O)Cn1c2ccc(Br)cc2c2cc(Br)ccc21 (racemic) | 13.8
C[C@H](/C=C/[C@H](C)C(C)(C)O)[C@H]1CC[C@H]2/C(=C/C=C3C[C@@H](O)C[C@H](O)C3)CCC[C@]12C | 6.57
CC(=O)NCCCCCC(=O)O | -0.42
CC#C[C@@H](CC(=O)O)c1ccc(OCc2cccc(-c3ccc(C(F)(F)F)cc3)c2)cc1 | 6.76
CSc1ccccc1Nc1nc(N2CCNCC2)nc2c(NCC3CC3)ncnc12 | 15.5
C[Se]CC[C@H](N)C(=O)O | 3.98
Cc1cc(Nc2ncnc3ccc(NC4=NC(C)(C)CO4)cc23)ccc1Oc1ccn2ncnc2c1 | 5.82
